# Results of several laboratories.
# Compare with care: the assays were run in different laboratories.
SMILES,test,test system,setting,measurement,result
CC(=O)N(C)[C@H]1CCN(C(=O)c2cnc3c(c2)C[C@](C)(c2ccc(F)cc2)N3)C1,,"healthy male subjects, multiple rising dose","oral, 30 mg once daily",adverse events leading to discontinuation,0%
C[C@H]1CNCCCN1S(=O)(=O)c1cccc2cncc(F)c12,refers to: Headache,healthy adult men,"topical ocular, 1 drop per eye twice daily, 8 days",adverse events,5.6%
CCO[C@H]1CCN(Cc2c(OC)cc(C)c3[nH]ccc23)[C@H](c2ccc(C(=O)O)cc2)C1,refers to: abdominal pain,PNH patients with active haemolysis,"oral, 100 mg, extension phase",adverse event incidence,20%
CC(C)C[C@H](NC(=O)CNC(=O)c1cc(Cl)ccc1Cl)B(O)O,,newly diagnosed multiple myeloma patients,"oral, dose not given, Nausea, maintenance",adverse events grade 3,6%
CC#CC(=O)N[C@H]1CCCN(c2c(F)cc(C(N)=O)c3[nH]c(C)c(C)c23)C1,,healthy volunteers,"oral, 3 mg once daily, 14 days, MAD phase I",adverse events,100%
CC(=O)O[C@H]1C(=O)[C@@]2(C)[C@H]([C@H](OC(=O)c3ccccc3)[C@]3(O)C[C@H](OC(=O)[C@H](O)[C@@H](NC(=O)c4ccccc4)c4ccccc4)C(C)=C1C3(C)C)[C@]1(OC(C)=O)CO[C@@H]1C[C@@H]2O,refers to: Nausea,patients with advanced solid tumours,"intravenous, dose not given, grade 3 and 4, possibly related to drug",adverse event incidence,4%
Cc1cc(C)c(CNC(=O)c2cc(Cl)c3c(c2C)O[C@@](C)([C@H]2CC[C@H](N(C)C)CC2)O3)c(=O)[nH]1,,relapsed/refractory NHL patients,"oral, 200 mg once daily, onset after cycle 1 day 1",adverse event Alopecia,29.2%
NCCONC(=O)[C@@H]1CC[C@@H]2CN1C(=O)N2OS(=O)(=O)O,refers to: infusion-related reaction,healthy Chinese men,"intravenous, 2 g, treatment-related",adverse event incidence,0%
C=CC(=O)N1CCC(c2ccc(C(N)=O)c(-c3ccc(Oc4ccccc4)cc3)n2)CC1,,relapsed/refractory mantle cell lymphoma patients,"oral, dose not given, part, all doses, CTCAE v4.03",adverse event rate,65.6%
O=C(c1cccnc1-c1ccncc1)N1CCC(O)(Cc2ccccc2)CC1,,healthy Japanese adults,"oral, dose not given",adverse events leading to discontinuation,0%
O=C1CCc2ccc(OCCCCN3CCN(c4cccc(Cl)c4Cl)CC3)cc2N1,refers to: Constipation,"genotyped patients, CYP2D6 ultrarapid metabolizers","dose not given, long-acting oral or depot",adverse event incidence,0%
Cc1cc(Nc2ccc(S(F)(F)(F)(F)F)cc2)n2nc(C(C)(F)F)nc2n1,,Plasmodium falciparum malaria patients,"oral, 400 mg",adverse event Asthenia,7.7%

# Excerpt of the above:
SMILES,test,test system,setting,measurement,result
CC(=O)O[C@H]1C(=O)[C@@]2(C)[C@H]([C@H](OC(=O)c3ccccc3)[C@]3(O)C[C@H](OC(=O)[C@H](O)[C@@H](NC(=O)c4ccccc4)c4ccccc4)C(C)=C1C3(C)C)[C@]1(OC(C)=O)CO[C@@H]1C[C@@H]2O,refers to: Nausea,patients with advanced solid tumours,"intravenous, dose not given, grade 3 and 4, possibly related to drug",adverse event incidence,4%
Cc1cc(C)c(CNC(=O)c2cc(Cl)c3c(c2C)O[C@@](C)([C@H]2CC[C@H](N(C)C)CC2)O3)c(=O)[nH]1,,relapsed/refractory NHL patients,"oral, 200 mg once daily, onset after cycle 1 day 1",adverse event Alopecia,29.2%
